{"data": "Measurements gathered from unrelated publications", "B1": "PP4 regulatory subunit 4 (human); sequence looked up; chain MHPPPPAAAMDFSQNSLFGYMEDLQELTIIERPVRRSLKTPEEIERLTVDEDLSDIERAVYLLSAGQDVQGTSVIANLPFLMRQNPTETLRRVLPKVREALHVAGVEMQLTAAMSFLTILQDESVSIHAYTHSFLQVILLHLEHRDTGVSNAWLETLLSVIEVLPKETLRHEILNPLVSKAQLSQTVQSRLVSCKILGKLTNKFDAHTIKREILPLVKSLCQDVEYEVRSCMCRQLENIAQGIGTELTKSVVLPELIELSRDEGSSVRLAAFETLVNLLDIFDTDDRSQTILPLVKSFCEKSFKADESILISLSFHLGKLCHGLYGIFTPDQHLRFLEFYKKLCTLGLQQENGHNENQIPPQILEQEKKYISVRKNCAYNFPAMIVFVDPKNFHMELYSTFFCLCHDPEVPVRYTIAICFYEVSKLLNSGVYLIHKELITLLQDESLEVLDALIDHLPEILELMSTGGESSVQENKLSSLPDLIPALTAAEQRAAASLKWRTHEKLLQKYACLPHVISSDQIYYRFLQRMFTIMMTNNVLPVQKAASRTLCIFLRYNRKQEQRHEVIQKLIEQLGQGKSYWNRLRFLDTCEFIIEIFSKSFFCKYFFLPAIELTHDPVANVRMKLCYLLPKVKSTLKIPADKHLLQQLEMCVRKLLCQEKDKDVLAIVKRTVLELDRMEMSMDAFQKKFYEKDLLDQEKEREELLLLEMEQLEKEKQQNDGRPMSDKMFEKKRRDTKTPTQSLPKNIPISVPGPSSVTPSTSKEIKKSKLIRSQSFNNQAFHAKYGNLEKCASKSSTTGYTTSVSGLGKTSVLSLADDSFRTRNASSVPSSFSPNTPLPSTSRGTGNSVDPKSSGSKDTQPRKATLKSRKSNP", "B2": "human FKBP4; sequence looked up; chain MTAEEMKATESGAQSAPLPMEGVDISPKQDEGVLKVIKREGTGTEMPMIGDRVFVHYTGWLLDGTKFDSSLDRKDKFSFDLGKGEVIKAWDIAIATMKVGEVCHITCKPEYAYGSAGSPPKIPPNATLVFEVELFEFKGEDLTEEEDGGIIRRIQTRGEGYAKPNEGAIVEVALEGYYKDKLFDQRELRFEIGEGENLDLPYGLERAIQRMEKGEHSIVYLKPSYAFGSVGKEKFQIPPNAELKYELHLKSFEKAKESWEMNSEEKLEQSTIVKERGTVYFKEGKYKQALLQYKKIVSWLEYESSFSNEEAQKAQALRLASHLNLAMCHLKLQAFSAAIESCNKALELDSNNEKGLFRRGEAHLAVNDFELARADFQKVLQLYPNNKAAKTQLAVCQQRIRRQLAREKKLYANMFERLAEEENKAKAEASSGDHPTDTEMKEEQKSNTAGSQSQVETEA", "B3": "PP4 regulatory subunit 1 (human); sequence looked up; chain MADLSLLQEDLQEDADGFGVDDYSSESDVIIIPSALDFVSQDEMLTPLGRLDKYAASENIFNRQMVARSLLDTLREVCDDERDCIAVLERISRLADDSEPTVRAELMEQVPHIALFCQENRPSIPYAFSKFLLPIVVRYLADQNNQVRKTSQAALLALLEQELIERFDVETKVCPVLIELTAPDSNDDVKTEAVAIMCKMAPMVGKDITERLILPRFCEMCCDCRMFHVRKVCAANFGDICSVVGQQATEEMLLPRFFQLCSDNVWGVRKACAECFMAVSCATCQEIRRTKLSALFINLISDPSRWVRQAAFQSLGPFISTFANPSSSGQYFKEESKSSEEMSVENKNRTRDQEAPEDVQVRPEDTPSDLSVSNSSVILENTMEDHAAEASGKPLGEISVPLDSSLLCTLSSESHQEAASNENDKKPGNYKSMLRPEVGTTSQDSALLDQELYNSFHFWRTPLPEIDLDIELEQNSGGKPSPEGPEEESEGPVPSSPNITMATRKELEEMIENLEPHIDDPDVKAQVEVLSAALRASSLDAHEETISIEKRSDLQDELDINELPNCKINQEDSVPLISDAVENMDSTLHYIHSDSDLSNNSSFSPDEERRTKVQDVVPQALLDQYLSMTDPSRAQTVDTEIAKHCAYSLPGVALTLGRQNWHCLRETYETLASDMQWKVRRTLAFSIHELAVILGDQLTAADLVPIFNGFLKDLDEVRIGVLKHLHDFLKLLHIDKRREYLYQLQEFLVTDNSRNWRFRAELAEQLILLLELYSPRDVYDYLRPIALNLCADKVSSVRWISYKLVSEMVKKLHAATPPTFGVDLINELVENFGRCPKWSGRQAFVFVCQTVIEDDCLPMDQFAVHLMPHLLTLANDRVPNVRVLLAKTLRQTLLEKDYFLASASCHQEAVEQTIMALQMDRDSDVKYFASIHPASTKISEDAMSTASSTY", "B4": "human hnRNP M; sequence looked up; chain AAGVEAAAEVAATEIKMEEESGAPGVPSGNGAPGPKGEGERPAQNEKRKEKNIKRGGNRFEPYANPTKRYRAFITNIPFDVKWQSLKDLVKEKVGEVTYVELLMDAEGKSRGCAVVEFKMEESMKKAAEVLNKHSLSGRPLKVKEDPDGEHARRAMQKVMATTGGMGMGPGGPGMITIPPSILNNPNIPNEIIHALQAGRLGSTVFVANLDYKVGWKKLKEVFSMAGVVVRADILEDKDGKSRGIGTVTFEQSIEAVQAISMFNGQLLFDRPMHVKMDERALPKGDFFPPERPQQLPHGLGGIGMGLGPGGQPIDANHLNKGIGMGNIGPAGMGMEGIGFGINKMGGMEGPFGGGMENMGRFGSGMNMGRINEILSNALKRGEIIAKQGGGGGGGSVPGIERMGPGIDRLGGAGMERMGAGLGHGMDRVGSEIERMGLVMDRMGSVERMGSGIERMGPLGLDHMASSIERMGQTMERIGSGVERMGAGMGFGLERMAAPIDRVGQTIERMGSGVERMGPAIERMGLSMERMVPAGMGAGLERMGPVMDRMATGLERMGANNLERMGLERMGANSLERMGLERMGANSLERMGPAMGPALGAGIERMGLAMGGGGGASFDRAIEMERGNFGGSFAGSFGGAGGHAPGVARKACQIFVRNLPFDFTWKMLKDKFNECGHVLYADIKMENGKSKGCGVVKFESPEVAERACRMMNGMKLSGREIDVRIDRNA", "B5": "human SND1; sequence looked up; chain ASSAQSGGSSGGPAVPTVQRGIIKMVLSGCAIIVRGQPRGGPPPERQINLSNIRAGNLARRAAATQPDAKDTPDEPWAFPAREFLRKKLIGKEVCFTIENKTPQGREYGMIYLGKDTNGENIAESLVAEGLATRREGMRANNPEQNRLSECEEQAKAAKKGMWSEGNGSHTIRDLKYTIENPRHFVDSHHQKPVNAIIEHVRDGSVVRALLLPDYYLVTVMLSGIKCPTFRREADGSETPEPFAAEAKFFTESRLLQRDVQIILESCHNQNILGTILHPNGNITELLLKEGFARCVDWSIAVYTRGAEKLRAAERFAKERRLRIWRDYVAPTANLDQKDKQFVAKVMQVLNADAIVVKLNSGDYKTIHLSSIRPPRLEGENTQDKNKKLRPLYDIPYMFEAREFLRKKLIGKKVNVTVDYIRPASPATETVPAFSERTCATVTIGGINIAEALVSKGLATVIRYRQDDDQRSSHYDELLAAEARAIKNGKGLHSKKEVPIHRVADISGDTQKAKQFLPFLQRAGRSEAVVEYVFSGSRLKLYLPKETCLITFLLAGIECPRGARNLPGLVQEGEPFSEEATLFTKELVLQREVEVEVESMDKAGNFIGWLHIDGANLSVLLVEHALSKVHFTAERSSYYKSLLSAEEAAKQKKEKVWAHYEEQPVEEVMPVLEEKERSASYKPVFVTEITDDLHFYVQDVETGTQLEKLMENMRNDIASHPPVEGSYAPRRGEFCIAKFVDGEWYRARVEKVESPAKIHVFYIDYGNREVLPSTRLGTLSPAFSTRVLPAQATEYAFAFIQVPQDDDARTDAVDSVVRDIQNTQCLLNVEHLSAGCPHVTLQFADSKGDVGLGLVKEGLVMVEVRKEKQFQKVITEYLNAQESAKSARLNLWRYGDFRADDADEFGYSR", "note": "Compare with care: the assays were run in different laboratories. Several values in a cell are separate wells, animals, samples, runs or records. ± marks the error that the study gave."}
{"Molecule": "epoetin alfa", "tested on": "UT7/EPO", "assay": "microarray, refers to: GDF15 (probe 221577_x_at)", "conditions": "5 U/mL, 90 min, added: SCF 10 nM", "scale": "baseline: vehicle", "endpoint": "mRNA level", "value": "5.1 fold"}
{"Molecule": "B1 (PP4 regulatory subunit 4)", "tested on": "CYB5R4 knockout human cells", "assay": "PP4 interaction, 3xFLAG-PP4C IP-MS", "conditions": "concentration not given", "scale": "baseline: CYB5R4 KO over parental", "endpoint": "log2 fold change", "value": 0.14}
{"Molecule": "GSGAGSETSV", "tested on": "construct, MBP fusion, human SCRIB, PDZ 3-4", "assay": "automated holdup", "test system": "peptide, crude extract", "conditions": "concentration not given, corrected by standard peak, unit not given", "scale": "baseline: biotin control resin, higher = stronger binding", "endpoint": "binding intensity", "value": 0.421}
{"Molecule": "B2 (human FKBP4)", "tested on": "CYB5R4 knockout human cells", "assay": "PP4 interaction, 3xFLAG-PP4C IP-MS", "conditions": "concentration not given", "scale": "baseline: CYB5R4 KO over parental", "endpoint": "log2 fold change", "value": 0.12}
{"Molecule": "cotadutide", "assay": "metabolomics, refers to: hepatic asparagine", "test system": "ob/ob mice on AMLN diet, NASH model, liver", "conditions": "dose not given", "endpoint": "metabolite level", "value": "0.92 ± 0.07 scaled intensity"}
{"Molecule": "PTBP1 (human)", "tested on": "CYB5R4 knockout human cells", "assay": "PP4 interaction, 3xFLAG-PP4C IP-MS", "conditions": "concentration not given", "scale": "baseline: CYB5R4 KO over parental", "endpoint": "log2 fold change", "value": -0.7}
{"Molecule": "Peginesatide", "tested on": "UT7/EPO", "assay": "tyrosine phosphorylation, LC-MS/MS phosphoproteomics, trypsin, refers to: SHIP2 tyrosine 986", "conditions": "10 nM, 15 min, added: 10 U/mL EPO", "scale": "baseline: vehicle", "endpoint": "phosphorylation level", "value": "36.4 fold"}
{"Molecule": "QGRWDHETIV", "tested on": "construct, MBP fusion, human SCRIB, PDZ 3-4", "assay": "surface plasmon resonance", "test system": "peptide", "conditions": "concentration not given", "scale": "higher = stronger binding", "endpoint": "normalised SPR binding response", "value": "16.5 normalised RU"}
{"Molecule": "B3 (PP4 regulatory subunit 1)", "tested on": "CYB5R4 knockout human cells", "assay": "PP4 interaction, 3xFLAG-PP4C IP-MS", "conditions": "concentration not given", "scale": "baseline: CYB5R4 KO over parental", "endpoint": "log2 fold change", "value": -0.31}
{"Molecule": "difelikefalin", "test system": "Japanese haemodialysis patients with pruritus", "conditions": "intravenous, 0.25 µg/kg, 8 weeks", "endpoint": "PGIC much improved", "value": "34.4%"}
{"Molecule": "colistin", "tested on": "Pseudomonas aeruginosa", "test system": "clinical isolate RKI 48/09", "endpoint": "MIC", "value": "≤ 0.5 µg/mL"}
{"Molecule": "B4 (human hnRNP M)", "tested on": "PP6C (human)", "assay": "co-immunoprecipitation, IP-MS", "test system": "CYB5R4 knockout cells", "conditions": "concentration not given", "scale": "baseline: CYB5R4 knockout over parental", "endpoint": "log2 fold change", "value": -1.24}
{"Molecule": "milbemycin oxime", "tested on": "Saccharomyces cerevisiae", "assay": "cell growth", "test system": "Pdr5 deleted, Cdr1 overexpressed", "conditions": "2^-7.966 µg/mL", "endpoint": "OD600", "value": "1.02 and 0.969 and 0.959"}
{"Molecule": "GSGAGSETKM", "tested on": "construct, MBP fusion, human SCRIB, PDZ 3-4", "assay": "automated holdup", "test system": "peptide, purified PDZ protein", "conditions": "concentration not given, unit not given", "scale": "baseline: biotin control resin, higher = stronger binding", "endpoint": "binding intensity", "value": 0.0555}
{"Molecule": "Polymyxin B", "tested on": "Staphylococcus aureus", "assay": "DiSC3(5) fluorescence", "conditions": "concentration not given, 90 min", "scale": "higher = more depolarisation", "endpoint": "membrane depolarisation", "value": "459 a.u. and 443 a.u. and 383 a.u."}
{"Molecule": "GSGAGSETVV", "tested on": "construct, MBP fusion, human SCRIB, PDZ 3-4", "assay": "surface plasmon resonance", "test system": "peptide", "conditions": "concentration not given", "scale": "higher = stronger binding", "endpoint": "normalised SPR binding response", "value": "0 normalised RU"}
{"Molecule": "B5 (human SND1)", "tested on": "PP6C (human)", "assay": "co-immunoprecipitation, IP-MS", "test system": "CYB5R4 knockout cells", "conditions": "concentration not given", "scale": "baseline: CYB5R4 knockout over parental", "endpoint": "log2 fold change", "value": 0.14}
{"Molecule": "VVVGAAGVGK", "tested on": "HLA-A*11:01 peptide-β2M single-chain trimer", "assay": "western blot, refers to: pMHC-I", "test system": "peptide, 293T cells", "conditions": "6 h, unit not given, added: 100 µg/mL cycloheximide", "scale": "baseline: time zero", "endpoint": "remaining protein", "value": "0.863 and 0.854 and 0.853"}
{"note": "Some of these lines once more:"}
{"Molecule": "B5 (human SND1)", "tested on": "PP6C (human)", "assay": "co-immunoprecipitation, IP-MS", "test system": "CYB5R4 knockout cells", "conditions": "concentration not given", "scale": "baseline: CYB5R4 knockout over parental", "endpoint": "log2 fold change", "value": 0.14}
{"Molecule": "GSGAGSETKM", "tested on": "construct, MBP fusion, human SCRIB, PDZ 3-4", "assay": "automated holdup", "test system": "peptide, purified PDZ protein", "conditions": "concentration not given, unit not given", "scale": "baseline: biotin control resin, higher = stronger binding", "endpoint": "binding intensity", "value": 0.0555}
{"Molecule": "PTBP1 (human)", "tested on": "CYB5R4 knockout human cells", "assay": "PP4 interaction, 3xFLAG-PP4C IP-MS", "conditions": "concentration not given", "scale": "baseline: CYB5R4 KO over parental", "endpoint": "log2 fold change", "value": -0.7}
